{"data": "Published values from different studies", "note": "Protocols differ between the studies behind these lines. ± marks the error that the study gave.", "sequence of UniProt P04746 (whole entry, looked up)": "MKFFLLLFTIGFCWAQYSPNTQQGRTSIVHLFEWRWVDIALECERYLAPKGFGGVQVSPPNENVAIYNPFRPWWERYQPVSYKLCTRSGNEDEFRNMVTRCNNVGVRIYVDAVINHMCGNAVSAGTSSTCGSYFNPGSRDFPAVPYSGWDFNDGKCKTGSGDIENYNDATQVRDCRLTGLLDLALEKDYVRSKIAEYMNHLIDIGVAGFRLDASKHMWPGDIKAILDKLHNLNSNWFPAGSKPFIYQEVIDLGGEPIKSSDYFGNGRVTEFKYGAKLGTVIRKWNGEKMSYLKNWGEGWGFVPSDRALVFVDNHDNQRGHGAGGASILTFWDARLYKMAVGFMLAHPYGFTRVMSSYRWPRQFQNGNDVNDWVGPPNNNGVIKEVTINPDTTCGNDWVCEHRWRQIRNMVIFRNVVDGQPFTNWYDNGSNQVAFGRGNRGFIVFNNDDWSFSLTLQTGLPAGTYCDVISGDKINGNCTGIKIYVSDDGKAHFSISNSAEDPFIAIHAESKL"}
{"SMILES": "Cc1ccc(N=Nc2c(N)nn3c(-c4ccco4)cc(-c4ccc(OCc5ccccc5)cc4)nc23)cc1", "target or system": "Escherichia coli", "system": "ATCC 25955", "endpoint": "MIC", "result": "15.6 µg/mL"}
{"SMILES": "O=C(NCc1ccccc1)c1cn(Cc2ccc(C(F)(F)F)cc2)c2ccc(Oc3ccccc3)cc2c1=O", "target or system": "MDA-MB-231/LM2-4, MCF10A", "assay": "cytotoxicity", "setting": "72 h", "how to read": "reference: CC50 MCF10A over CC50 MDA-MB-231/LM2-4", "endpoint": "selectivity ratio", "result": 1.6}
{"SMILES": "COc1cc(/C=N/NC(=S)N/N=C\\c2ccc(CCl)cc2)ccc1Oc1ccnc2cc(Cl)ccc12", "target or system": "human lysosomal acid alpha-glucosidase", "assay": "inhibitor", "setting": "with: pNPG substrate", "endpoint": "IC50", "result": "11.13 ± 0.11 µg/mL"}
{"SMILES": "COc1ccc(N=Nc2c(N)nn3c(-c4ccc(C)cc4)cc(-c4ccc(OCc5ccccc5)cc4)nc23)cc1", "target or system": "Bacillus pumilus", "assay": "broth microdilution", "system": "MTCC 2296", "endpoint": "MBC", "result": "31.3 µg/mL"}
{"SMILES": "COc1cc(-c2nc3ccccc3c(=O)n2Nc2ccc([N+](=O)[O-])cc2[N+](=O)[O-])ccc1OCc1cn(CC(=O)Nc2ccc(Cl)cc2Cl)nn1", "target or system": "mushroom tyrosinase", "assay": "enzyme activity", "setting": "40 µM, with: L-DOPA", "endpoint": "inhibition", "result": "29.4 ± 2.92%"}
{"SMILES": "COc1cc(/C=N/NC(=S)N/N=C/c2ccc(C)cc2)ccc1Oc1ccnc2cc(Cl)ccc12", "target or system": "Pancreatic alpha-amylase (Homo sapiens, UniProt P04746)", "assay": "enzyme activity, inhibitor, DNS method", "setting": "with: starch substrate", "endpoint": "IC50", "result": "24.1 ± 0.3 µg/mL"}
{"SMILES": "COc1cc(-c2nc3ccccc3c(=O)n2Nc2ccc([N+](=O)[O-])cc2[N+](=O)[O-])ccc1OCc1cn(CC(=O)Nc2ccc(C)cc2)nn1", "target or system": "mushroom tyrosinase", "assay": "enzyme activity", "setting": "40 µM, with: L-DOPA", "endpoint": "inhibition", "result": "45.2 ± 2.39%"}
{"SMILES": "O=C(Nc1cc(-c2ccc(Cl)cc2)[nH]n1)C1CCCCC1", "target or system": "PRKACA (Homo sapiens, UniProt P17612)", "assay": "enzyme activity, Dundee kinase panel", "setting": "10 µM", "endpoint": "remaining activity", "result": "84%"}
{"note": "For quick reference, copied from above:"}
{"SMILES": "O=C(NCc1ccccc1)c1cn(Cc2ccc(C(F)(F)F)cc2)c2ccc(Oc3ccccc3)cc2c1=O", "target or system": "MDA-MB-231/LM2-4, MCF10A", "assay": "cytotoxicity", "setting": "72 h", "how to read": "reference: CC50 MCF10A over CC50 MDA-MB-231/LM2-4", "endpoint": "selectivity ratio", "result": 1.6}
